Measurements collected from several papers.
Each numbered part is a random draw from the data of one study; scales do not carry over between parts. Substitutions count along the parent as printed.

Set 1
Target: PABPC1L2, full length, GST fusion (mouse, UniProt A0ABA7IW68)
Method: RNAcompete
Form: RNA
Matrix: in vitro
Tested at: 20 nM
Notes: 7-mer, probes averaged, single round
Reference: mean of 7-mers
Reading: higher = stronger binding
Quantity: 7-mer Z-score
Target sequence (chain): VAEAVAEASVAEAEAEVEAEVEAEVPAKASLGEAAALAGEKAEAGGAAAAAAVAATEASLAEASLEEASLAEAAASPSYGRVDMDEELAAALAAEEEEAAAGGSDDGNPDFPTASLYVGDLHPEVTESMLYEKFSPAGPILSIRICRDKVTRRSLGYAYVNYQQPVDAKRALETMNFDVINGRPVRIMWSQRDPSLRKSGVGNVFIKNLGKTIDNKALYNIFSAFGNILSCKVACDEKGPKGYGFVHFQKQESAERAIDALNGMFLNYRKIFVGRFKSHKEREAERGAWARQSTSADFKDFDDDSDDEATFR
Sequence = AAUCUAG; value = 0.151
Sequence = GAGUGAA; value = 0.0315
Sequence = CGACGGG; value = -0.0536
Sequence = AUACGAC; value = -0.0518
Sequence = ACAUUGG; value = 0.0533
Sequence = AGCCAGU; value = -0.284
Sequence = CAUUAGA; value = 0.0696
Sequence = GUCCUCA; value = -0.184

Set 2
Target: CRIPT, C-terminal peptide
Method: DHFR complementation, deep sequencing
Matrix: yeast
Notes: single substitutions, model-inferred values
Reference: wild type
Reading: higher = weaker binding
Quantity: binding free energy change
Starting sequence: ERBIN, PDZ domain 1 (human); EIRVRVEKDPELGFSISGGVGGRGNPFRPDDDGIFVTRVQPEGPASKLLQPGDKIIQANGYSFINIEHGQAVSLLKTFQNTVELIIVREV; partner TKNYKQTSV
Variant = F35Q; value = 0.942 kcal/mol
Variant = V6K; value = 0.918 kcal/mol
Variant = I56M; value = 0.0421 kcal/mol
Variant = R5W; value = 0.182 kcal/mol
Variant = L74M; value = -0.0531 kcal/mol
Variant = V90K; value = -0.0372 kcal/mol
Variant = A45I; value = 1.15 kcal/mol
Variant = R5I; value = 0.145 kcal/mol

Set 3
Variant: V100E
Target: ABI1, truncated, D143A, DHFR fusion (Arabidopsis thaliana)
Method: DHFR PCA, deep sequencing
Matrix: yeast
Notes: methotrexate growth selection, single substitutions
Reference: wild-type fitted maximum
Reading: higher = stronger binding
Quantity: relative binding score
Starting sequence: PYL1, truncated, DHFR fusion (Arabidopsis thaliana); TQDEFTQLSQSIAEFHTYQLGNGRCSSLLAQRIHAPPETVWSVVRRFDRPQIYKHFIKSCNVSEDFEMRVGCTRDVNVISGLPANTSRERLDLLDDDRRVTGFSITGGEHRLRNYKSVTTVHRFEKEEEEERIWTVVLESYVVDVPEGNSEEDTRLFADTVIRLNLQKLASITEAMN; partner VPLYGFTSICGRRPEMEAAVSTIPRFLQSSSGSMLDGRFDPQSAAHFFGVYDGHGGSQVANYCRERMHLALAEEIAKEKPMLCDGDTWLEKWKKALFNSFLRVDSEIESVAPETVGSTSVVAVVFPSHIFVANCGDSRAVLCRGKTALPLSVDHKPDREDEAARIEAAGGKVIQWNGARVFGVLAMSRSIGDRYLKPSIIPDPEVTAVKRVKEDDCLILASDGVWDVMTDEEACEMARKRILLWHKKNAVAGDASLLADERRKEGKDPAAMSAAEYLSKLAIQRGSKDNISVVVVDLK
with = (+)-ABA 0.0091 µM; value = -10.4%
with = (+)-ABA 4.8 µM; value = 1.89%
with = (+)-ABA 200 µM; value = 9.09%
with = (+)-ABA 1.4 µM; value = -5.57%
with = (+)-ABA 0.39 µM; value = -3.47%
with = (+)-ABA 0.032 µM; value = 3.2%

Set 4
Target: CCND2, cyclin fold, Cln2 fusion (human)
Method: yeast growth competition, sequencing
Matrix: yeast
Notes: weak parent motif
Reference: not given
Reading: higher = stronger binding
Quantity: normalised enrichment score
Starting sequence: viral docking peptide; KKAKRRLFTISDS
Variant = D12A; value = -0.0522
Variant = K4A; value = -0.0516
Variant = T9A; value = 0.245
Variant = S13A; value = 0.476
Variant = R6A; value = 0.716
Variant = K2A; value = 0.0131
Variant = R5K F8L; value = -0.144

Repeated from above (set 1):
Sequence = AAUCUAG; value = 0.151
Sequence = GAGUGAA; value = 0.0315
Sequence = CGACGGG; value = -0.0536
Sequence = AUACGAC; value = -0.0518
Sequence = ACAUUGG; value = 0.0533
